Assay results gathered from unrelated publications.
Protocols differ between the studies behind these lines. ± marks the error that the study gave.

CCCC[C@H](NC(C)=O)C(=O)N[C@H]1CC(=O)NCCCC[C@@H](C(=O)N[C@@H](C(=O)N2CCC[C@@H]2C(N)=O)C(C)C)NC(=O)[C@H](Cc2c[nH]c3ccccc23)NC(=O)[C@H](CCCN=C(N)N)NC(=O)[C@@H](Cc2ccc3ccccc3c2)NC(=O)[C@@H]2CCCN2C1=O
Tmax (dog, cachectic, plasma; subcutaneous, 0.75 mg/kg): 1 h

CC(C)C[C@@H](NC(=O)[C@H](NC(=O)[C@H]1CCCN1)[C@H](C)O)C(=O)N[C@H](Cc1c[nH]cn1)C(=O)N[C@@H](C(=O)N[C@H](Cc1c[nH]cn1)C(=O)N[C@H](CC(N)=O)C(=O)N[C@H](CCCNC(=N)N)C(=O)N[C@H](CCCNC(=N)N)C(=O)N[C@H](CCCNC(=N)N)C(=O)N[C@H](CCCNC(=N)N)C(=O)N[C@H](CCCNC(=N)N)C(N)=O)[C@H](C)O
tmax (Beagle dog, CSF; oral, 50 mg/kg): 8.7 ± 7.8 h

COC(=O)c1ccc2c(c1)NC(=O)/C2=C(\Nc1ccc2c(c1)CCN2C(=O)CN1CCOCC1)c1ccccc1
Tmax (beagle dog, plasma; oral, 50 mg/kg): 2 h

Cc1[nH]c(/C=C2\C(=O)Nc3ccc(F)cc32)c(C)c1NC(=O)CCN1CCN(C)CC1
Tmax (Beagle dog, both sexes, plasma; oral, 3 mg/kg): 9.08 ± 11.6 h

Cc1ccc(OCC(=O)N(Cc2cccs2)c2ccn[nH]2)cc1
Tmax (beagle dog, male, plasma; oral gavage, 10 mg/kg): 1.5 h

CCCC[C@H](NC(C)=O)C(=O)N[C@H]1CC(=O)NCCCC[C@@H](C(=O)N[C@@H](C(=O)N2CCC[C@@H]2C(N)=O)C(C)C)NC(=O)[C@H](Cc2c[nH]c3ccccc23)NC(=O)[C@H](CCCN=C(N)N)NC(=O)[C@@H](Cc2ccc3ccccc3c2)NC(=O)[C@@H]2CCCN2C1=O
Tmax (Beagle dog, both sexes, plasma; subcutaneous, once daily, 0.75 mg/kg, day 5): 1.2 ± 0.2 h

O=C(CCC(C(=O)[O-])N1CCN(C(CCC(=O)NCC(O)CO)C(=O)[O-])Cc2cccc(n2)CN(C(CCC(=O)NCC(O)CO)C(=O)[O-])CC1)NCC(O)CO.[153Gd+3] (centres unmarked)
Tmax (item: total radioactivity; Beagle dog, plasma; intravenous, 0.2 mmol Gd/kg): 0.0833 h

CC1(C)CCC(CN2CCN(c3ccc(C(=O)NS(=O)(=O)c4ccc(NCC5COCCO5)c([N+](=O)[O-])c4)c(N4CCCOc5nc6[nH]ccc6cc54)c3)CC2)=C(c2ccc(Cl)cc2)C1 (centres unmarked)
Tmax (male Beagle dogs, plasma; oral, 25 mg/kg): 10 h

For quick reference, copied from above:
CCCC[C@H](NC(C)=O)C(=O)N[C@H]1CC(=O)NCCCC[C@@H](C(=O)N[C@@H](C(=O)N2CCC[C@@H]2C(N)=O)C(C)C)NC(=O)[C@H](Cc2c[nH]c3ccccc23)NC(=O)[C@H](CCCN=C(N)N)NC(=O)[C@@H](Cc2ccc3ccccc3c2)NC(=O)[C@@H]2CCCN2C1=O
Tmax (dog, cachectic, plasma; subcutaneous, 0.75 mg/kg): 1 h
